Measured values collected from several papers.
A part holds a random share of what one study measured. Values joined by “and” are separate records of one study, mostly repeats; a detail may differ.
UniProt P10721, sequence (whole entry, unmodified, looked up): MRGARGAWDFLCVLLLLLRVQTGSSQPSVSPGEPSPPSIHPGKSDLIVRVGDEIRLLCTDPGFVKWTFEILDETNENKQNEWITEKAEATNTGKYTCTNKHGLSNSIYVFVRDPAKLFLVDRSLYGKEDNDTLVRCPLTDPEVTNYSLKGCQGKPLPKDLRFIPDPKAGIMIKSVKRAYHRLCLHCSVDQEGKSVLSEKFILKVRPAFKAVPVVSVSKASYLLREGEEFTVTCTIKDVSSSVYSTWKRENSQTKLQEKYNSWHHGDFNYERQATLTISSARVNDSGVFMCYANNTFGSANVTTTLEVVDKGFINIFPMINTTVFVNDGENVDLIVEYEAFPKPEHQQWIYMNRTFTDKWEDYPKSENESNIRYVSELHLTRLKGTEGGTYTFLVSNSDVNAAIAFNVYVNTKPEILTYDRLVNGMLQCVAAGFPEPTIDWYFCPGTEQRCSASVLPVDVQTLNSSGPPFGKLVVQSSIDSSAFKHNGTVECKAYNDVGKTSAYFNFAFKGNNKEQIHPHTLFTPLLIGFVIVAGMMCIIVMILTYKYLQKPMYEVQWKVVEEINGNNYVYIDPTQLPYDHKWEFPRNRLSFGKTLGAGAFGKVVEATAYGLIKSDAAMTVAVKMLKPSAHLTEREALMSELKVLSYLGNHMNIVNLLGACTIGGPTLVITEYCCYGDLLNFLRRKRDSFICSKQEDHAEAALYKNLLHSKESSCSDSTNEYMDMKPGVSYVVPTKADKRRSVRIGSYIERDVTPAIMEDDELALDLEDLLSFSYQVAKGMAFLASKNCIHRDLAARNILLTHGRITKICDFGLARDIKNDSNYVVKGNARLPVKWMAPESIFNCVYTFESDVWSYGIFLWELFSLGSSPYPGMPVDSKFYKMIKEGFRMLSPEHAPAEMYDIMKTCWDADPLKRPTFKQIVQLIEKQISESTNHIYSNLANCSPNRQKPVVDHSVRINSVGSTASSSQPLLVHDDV
UniProt Q9Y2U5, sequence (whole entry, looked up): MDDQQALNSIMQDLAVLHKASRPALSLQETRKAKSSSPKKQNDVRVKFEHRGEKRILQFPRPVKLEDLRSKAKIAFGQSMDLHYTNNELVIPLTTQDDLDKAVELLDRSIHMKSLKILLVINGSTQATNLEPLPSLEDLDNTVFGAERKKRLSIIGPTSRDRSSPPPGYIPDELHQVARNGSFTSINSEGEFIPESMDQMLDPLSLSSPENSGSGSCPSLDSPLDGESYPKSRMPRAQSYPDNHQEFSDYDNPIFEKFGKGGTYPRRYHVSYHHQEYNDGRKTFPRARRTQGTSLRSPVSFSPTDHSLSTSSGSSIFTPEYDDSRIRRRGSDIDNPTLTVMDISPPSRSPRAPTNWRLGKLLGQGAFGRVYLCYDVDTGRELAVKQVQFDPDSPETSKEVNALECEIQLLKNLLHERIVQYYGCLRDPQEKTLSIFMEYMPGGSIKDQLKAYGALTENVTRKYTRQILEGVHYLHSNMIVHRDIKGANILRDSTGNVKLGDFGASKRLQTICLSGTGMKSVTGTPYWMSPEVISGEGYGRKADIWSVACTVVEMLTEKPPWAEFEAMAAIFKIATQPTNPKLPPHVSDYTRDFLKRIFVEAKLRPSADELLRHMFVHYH
UniProt Q05655, sequence (whole entry, looked up): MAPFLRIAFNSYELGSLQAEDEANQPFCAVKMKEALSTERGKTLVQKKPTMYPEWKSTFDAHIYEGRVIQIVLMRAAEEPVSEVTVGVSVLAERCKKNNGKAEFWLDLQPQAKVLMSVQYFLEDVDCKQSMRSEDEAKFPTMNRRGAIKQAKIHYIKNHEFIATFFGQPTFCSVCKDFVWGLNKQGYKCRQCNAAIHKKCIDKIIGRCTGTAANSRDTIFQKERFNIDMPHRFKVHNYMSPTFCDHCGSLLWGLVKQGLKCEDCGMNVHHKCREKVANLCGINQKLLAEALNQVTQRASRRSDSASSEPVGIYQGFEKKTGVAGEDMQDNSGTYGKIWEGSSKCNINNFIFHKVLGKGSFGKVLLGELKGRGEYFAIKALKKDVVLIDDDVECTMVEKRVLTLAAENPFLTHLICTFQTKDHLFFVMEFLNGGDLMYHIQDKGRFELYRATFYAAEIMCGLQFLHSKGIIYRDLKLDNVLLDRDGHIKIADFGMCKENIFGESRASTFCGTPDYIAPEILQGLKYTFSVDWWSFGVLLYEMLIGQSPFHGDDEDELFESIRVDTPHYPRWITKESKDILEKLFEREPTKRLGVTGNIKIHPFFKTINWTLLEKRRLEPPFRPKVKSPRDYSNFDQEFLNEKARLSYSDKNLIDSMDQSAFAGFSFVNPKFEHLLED
UniProt P50613, sequence (whole entry, looked up): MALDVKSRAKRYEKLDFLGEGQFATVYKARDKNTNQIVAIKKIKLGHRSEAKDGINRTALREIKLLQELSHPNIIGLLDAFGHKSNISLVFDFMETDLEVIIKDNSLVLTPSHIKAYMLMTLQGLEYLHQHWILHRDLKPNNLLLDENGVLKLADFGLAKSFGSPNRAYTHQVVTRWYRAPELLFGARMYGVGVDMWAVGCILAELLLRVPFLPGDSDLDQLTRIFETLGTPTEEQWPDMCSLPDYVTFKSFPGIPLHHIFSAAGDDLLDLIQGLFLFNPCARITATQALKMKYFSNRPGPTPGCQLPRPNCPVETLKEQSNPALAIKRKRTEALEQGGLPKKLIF
UniProt Q16288, sequence (whole entry, looked up): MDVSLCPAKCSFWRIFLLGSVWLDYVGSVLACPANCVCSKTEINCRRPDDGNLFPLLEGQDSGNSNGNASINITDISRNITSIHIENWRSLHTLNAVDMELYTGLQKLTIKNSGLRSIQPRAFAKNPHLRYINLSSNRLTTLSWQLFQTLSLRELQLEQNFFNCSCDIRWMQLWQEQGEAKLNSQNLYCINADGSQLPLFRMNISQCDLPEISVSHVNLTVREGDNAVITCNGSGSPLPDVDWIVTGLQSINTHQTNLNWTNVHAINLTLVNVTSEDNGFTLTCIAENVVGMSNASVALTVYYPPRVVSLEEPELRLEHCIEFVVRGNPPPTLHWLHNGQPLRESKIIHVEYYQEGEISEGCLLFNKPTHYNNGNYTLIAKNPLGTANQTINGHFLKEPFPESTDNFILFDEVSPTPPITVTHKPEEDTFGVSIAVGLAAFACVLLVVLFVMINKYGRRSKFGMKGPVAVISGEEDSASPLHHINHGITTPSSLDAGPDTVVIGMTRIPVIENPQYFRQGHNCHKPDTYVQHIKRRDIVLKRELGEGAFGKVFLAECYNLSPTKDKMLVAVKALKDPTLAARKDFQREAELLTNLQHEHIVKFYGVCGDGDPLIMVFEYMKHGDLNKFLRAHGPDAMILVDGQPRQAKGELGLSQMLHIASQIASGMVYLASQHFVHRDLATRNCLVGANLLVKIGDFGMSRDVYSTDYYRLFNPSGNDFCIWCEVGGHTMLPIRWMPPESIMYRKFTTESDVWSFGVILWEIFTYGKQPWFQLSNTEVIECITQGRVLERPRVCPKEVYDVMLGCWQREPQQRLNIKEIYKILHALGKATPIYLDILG
UniProt Q13546, sequence (whole entry, looked up): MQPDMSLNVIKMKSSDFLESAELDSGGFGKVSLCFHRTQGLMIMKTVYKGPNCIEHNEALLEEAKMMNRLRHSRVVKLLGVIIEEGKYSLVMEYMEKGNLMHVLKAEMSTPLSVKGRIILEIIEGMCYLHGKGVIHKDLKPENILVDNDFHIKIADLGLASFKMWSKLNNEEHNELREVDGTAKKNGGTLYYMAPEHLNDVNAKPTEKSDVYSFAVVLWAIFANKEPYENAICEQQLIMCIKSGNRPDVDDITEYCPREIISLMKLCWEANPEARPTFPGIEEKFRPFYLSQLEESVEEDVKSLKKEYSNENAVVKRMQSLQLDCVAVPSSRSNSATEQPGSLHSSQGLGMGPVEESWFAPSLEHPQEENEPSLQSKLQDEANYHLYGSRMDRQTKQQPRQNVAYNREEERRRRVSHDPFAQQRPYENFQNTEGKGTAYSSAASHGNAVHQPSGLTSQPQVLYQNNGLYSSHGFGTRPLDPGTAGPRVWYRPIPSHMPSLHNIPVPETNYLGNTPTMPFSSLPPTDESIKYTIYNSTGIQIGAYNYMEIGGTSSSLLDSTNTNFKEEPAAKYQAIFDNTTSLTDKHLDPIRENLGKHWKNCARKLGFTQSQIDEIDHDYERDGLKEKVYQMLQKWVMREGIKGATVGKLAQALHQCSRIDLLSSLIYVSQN
UniProt Q9UQM7, sequence (whole entry, looked up): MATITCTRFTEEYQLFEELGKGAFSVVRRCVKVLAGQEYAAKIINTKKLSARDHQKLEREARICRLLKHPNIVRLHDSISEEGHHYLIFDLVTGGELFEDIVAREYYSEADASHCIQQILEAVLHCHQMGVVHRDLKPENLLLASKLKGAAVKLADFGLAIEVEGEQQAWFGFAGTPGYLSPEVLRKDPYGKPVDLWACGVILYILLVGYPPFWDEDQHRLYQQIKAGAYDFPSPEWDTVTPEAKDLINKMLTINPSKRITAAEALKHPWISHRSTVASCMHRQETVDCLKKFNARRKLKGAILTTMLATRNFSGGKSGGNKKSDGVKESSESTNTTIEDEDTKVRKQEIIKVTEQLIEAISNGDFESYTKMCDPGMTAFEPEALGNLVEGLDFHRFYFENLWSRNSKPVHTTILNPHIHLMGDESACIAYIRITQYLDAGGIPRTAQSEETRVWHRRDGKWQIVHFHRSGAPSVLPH
UniProt Q8IU85, sequence (whole entry, looked up): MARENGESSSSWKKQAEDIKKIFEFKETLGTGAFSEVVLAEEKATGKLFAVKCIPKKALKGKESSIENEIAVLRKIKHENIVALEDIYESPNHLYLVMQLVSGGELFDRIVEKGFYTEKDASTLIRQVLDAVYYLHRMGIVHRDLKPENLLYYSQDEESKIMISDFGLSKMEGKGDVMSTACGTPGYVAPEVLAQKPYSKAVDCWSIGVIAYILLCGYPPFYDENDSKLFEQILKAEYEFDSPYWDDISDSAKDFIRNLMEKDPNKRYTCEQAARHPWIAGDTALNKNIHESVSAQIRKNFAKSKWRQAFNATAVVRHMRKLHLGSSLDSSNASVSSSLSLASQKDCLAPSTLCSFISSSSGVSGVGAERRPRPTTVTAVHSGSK

Sample 1
SMILES: CN1CC[C@H](c2c(O)cc(O)c3c(=O)cc(-c4ccccc4Cl)oc23)[C@H](O)C1
Host: nude mouse, HH xenograft
Dose: dose not given
| time | tumour volume |
| --- | --- |
| day 4 | 41.5 mm³ and 75.7 mm³ and 46.5 mm³ and 65.8 mm³ and 85.7 mm³ and 60.3 mm³ and 78 mm³ and 80 mm³ |
| day 8 | 219 mm³ and 103 mm³ and 56.1 mm³ and 115 mm³ and 101 mm³ and 61.9 mm³ and 110 mm³ and 154 mm³ |
| day 0 | 0 mm³ |
| day 2 | 39.4 mm³ and 37.8 mm³ and 42.8 mm³ and 20.8 mm³ and 36.8 mm³ and 23.2 mm³ and 32.7 mm³ and 38.2 mm³ |

Sample 2
Cell line: mouse MPNST tumor cells
Method: high-content nuclear imaging
Refers to: cell number
Tested at: 10 µM
Time: 12 h
Setting: mean of 2 replicates
Baseline: plate mean
Reading: higher = more cells
| SMILES | nuclei count |
| --- | --- |
| CC(C)(C)C(=O)C(Oc1ccc(Cl)cc1)n1ccnc1 (centres unmarked) | 0.215 z-score |
| O=C(Nc1ccc(Cl)nc1)c1ccc(Cl)cc1 | 1.91 z-score |
| O=C(O)C1=CCCN(CCON=C(c2ccccc2)c2ccccc2)C1 | -0.0405 z-score |
| NCCCC[C@H](N[C@@H](CCc1ccccc1)C(=O)O)C(=O)N1CCC[C@H]1C(=O)O | 1.49 z-score |
| CCC(=O)OCC(=O)[C@@]1(OC(=O)CC)[C@@H](C)C[C@H]2[C@@H]3CCC4=CC(=O)C=C[C@]4(C)[C@@]3(Cl)[C@@H](O)C[C@@]21C | 1.17 z-score |
| O=C(O)Cc1cc(I)c(Oc2ccc(O)c(I)c2)c(I)c1 | 2.29 z-score |
| COc1cc(OC)c(NC(=O)Nc2cc(C)on2)cc1Cl | 2.27 z-score |
| CCc1oc2ccccc2c1C(=O)c1cc(Br)c(O)c(Br)c1 | 1.19 z-score |
| COC1=C(OC)C(=O)C(CCCCCCCCCCO)=C(C)C1=O | 0.996 z-score |

Sample 3
SMILES: Nc1[nH]nc2nnc(-c3c(-c4ccccc4)nn4ccccc34)cc12
Read-out: enzyme activity
Mode: inhibitor
Tested at: 0.5 µM
Baseline: control
| target | remaining activity |
| --- | --- |
| NEK9 (Homo sapiens, UniProt Q8TD19) | 93.3% |
| HIPK3 (Homo sapiens, UniProt Q9H422) | 95.3% |
| EGFR (Homo sapiens, UniProt P00533) | 83.9% |
| Cyclin-dependent kinase 2, with cyclin A (CDK2, Homo sapiens, UniProt P24941) | 92.9% |
| RET (Homo sapiens, UniProt P07949) | 93.7% |
| CAMK1G (Homo sapiens, UniProt Q96NX5) | 99.2% |
| CSNK2A2 (Homo sapiens, UniProt P19784) | 93.4% |
| DYRK4 (Homo sapiens, UniProt Q9NR20) | 95.3% |
| PKN2 (Homo sapiens, UniProt Q16513) | 98.9% |
| NTRK3 (Homo sapiens, UniProt Q16288) | 76.6% |
| MAP3K2 (Homo sapiens, UniProt Q9Y2U5) | 97.8% |
| MAPK10 (Homo sapiens, UniProt P53779) | 103% |
| DMPK (Homo sapiens, UniProt Q09013) | 103% |
| ROCK2 (Homo sapiens, UniProt O75116) | 89.6% |
| BRSK1 (Homo sapiens, UniProt Q8TDC3) | 98.6% |
| CAMK1D (Homo sapiens, UniProt Q8IU85) | 95.9% |
| PTK2B (Homo sapiens, UniProt Q14289) | 95.4% |
| PRKD1 (Homo sapiens, UniProt Q15139) | 68.4% |
| GRK5 (Homo sapiens, UniProt P34947) | 106% |
| MAP3K8 (Homo sapiens, UniProt P41279) | 95% |
| Aurora kinase A (AURKA, Homo sapiens, UniProt O14965) | 101% |
| ROS1 (Homo sapiens, UniProt P08922) | 80.2% |
| CDK7 (Homo sapiens, UniProt P50613) | 99% |
| SLK (Homo sapiens, UniProt Q9H2G2) | 94% |

Sample 4
Compound: CC(=O)N1CCC(c2ccc(C(=O)NC(=N)N)cc2C(F)(F)F)CC1
Method: competition with immobilised ligand
Tested at: 1 µM
| target | read-out | remaining binding |
| --- | --- | --- |
| PIK3CD (Homo sapiens, UniProt O00329) | cell-free assay | 34% |
| LATS2 (Homo sapiens, UniProt Q9NRM7) | cell-free assay | 100% |
| FGFR4 (Homo sapiens, UniProt P22455) | cell-free assay | 100% |
| CAMK2A (Homo sapiens, UniProt Q9UQM7) | cell-free assay | 100% |
| KIT (Homo sapiens, UniProt P10721, D816V) | cell-free assay | 100% |
| MAP4K5 (Homo sapiens, UniProt Q9Y4K4) | cell-free assay | 100% |
| KIT (Homo sapiens, UniProt P10721) | cell-free assay | 95% |
| PRKCD (Homo sapiens, UniProt Q05655) | cell-free assay | 100% |
| CDKL5 (Homo sapiens, UniProt O76039) | cell-free assay | 82% |
| DDR1 (Homo sapiens, UniProt Q08345) | cell-free assay | 83% |
| STK4 (Homo sapiens, UniProt Q13043) | cell-free assay | 98% |
| PLK2 (Homo sapiens, UniProt Q9NYY3) | cell-free assay | 93% |
| PIKFYVE (Homo sapiens, UniProt Q9Y2I7) | cell-free assay | 84% |
| SBK3 (Homo sapiens, UniProt P0C264) | cell-free assay | 100% |
| SGK3 (Homo sapiens, UniProt Q96BR1) | cell-free assay | 100% |
| TAOK1 (Homo sapiens, UniProt Q7L7X3) | cell-free assay | 100% |
| RIPK1 (Homo sapiens, UniProt Q13546) | cell-free assay | 100% |
| CILK1 (Homo sapiens, UniProt Q9UPZ9) | binding | 94% |
| PAK2 (Homo sapiens, UniProt Q13177) | cell-free assay | 100% |
| Tyrosine-protein kinase ABL1, phosphorylated (ABL1, Homo sapiens, UniProt P00519, M351T) | cell-free assay | 100% |
| SRPK2 (Homo sapiens, UniProt P78362) | cell-free assay | 0% |
| PRKG1 (Homo sapiens, UniProt Q13976) | cell-free assay | 100% |
| MAP2K7 (Homo sapiens, UniProt O14733) | cell-free assay | 86% |
| STK3 (Homo sapiens, UniProt Q13188) | cell-free assay | 100% |
| CSNK1A1 (Homo sapiens, UniProt P48729) | cell-free assay | 92% |
